Published values collected from several papers.
Each line is one published result; not all experiments were run side by side. Several values in a cell are separate wells, animals, samples, runs or records. ± gives the spread as reported.

The viability of `CC(C)C[C@H](NC(=O)[C@H](CCC(=O)O)NC(=O)[C@@H](N)Cc1ccccc1)C(=O)N[C@@H](CCC(=O)O)C(=O)N[C@@H](CCCNC(=N)N)C(=O)N[C@@H](CCCNC(=N)N)C(=O)N[C@@H](Cc1ccccc1)C(=O)N[C@@H](CCCCN)C(=O)N[C@@H](CCC(N)=O)C(=O)N[C@@H](CCC(N)=O)C(=O)O` is reported as 96.6% and 100% and 102% (HCT-116; CCK-8; 2.5 µM; relative to: vehicle).
`CC(C)[C@H](NC(=O)[C@H](CCCNC(=N)N)NC(=O)[C@@H]1CCCN1C(=O)[C@@H](NC(=O)[C@H](C)NC(=O)[C@H](Cc1ccc(O)cc1)NC(=O)[C@H](CCC(N)=O)NC(=O)[C@H](CCCCN)NC(=O)[C@H](CCCNC(=N)N)NC(=O)[C@@H]1CCCN1C(=O)[C@H](CCC(=O)O)NC(=O)[C@@H](NC(=O)[C@H](C)N)[C@@H](C)O)[C@@H](C)O)C(=O)N[C@@H](Cc1ccccc1)C(=O)N[C@@H](Cc1c[nH]c2ccccc12)C(=O)N[C@H](C(=O)N[C@@H](CC(=O)O)C(=O)N[C@@H](C)C(=O)N1CCC[C@H]1C(=O)NCC(=O)NCCOCCOCCOCCOCCOCCOCCOCCOCCOCCOCCOCCOCCC(=O)N[C@@H](CS)C(N)=O)[C@@H](C)O` gave a selectivity ratio of 1.9 ± 1.2 (LNCaP prostate carcinoma; cell binding, phage binding, measured: output/input phage; 10 min, 37 °C; relative to: control phage).
For `Cc1c(Cl)cccc1Nc1ccccc1C(=O)[Se]CC(=O)Nc1cccc(C(F)(F)F)c1`, the CC50 was 18.2 µM (NCI60 colon subpanel; NCI60 five-dose screen).
`Cc1cc(C(=O)Nc2nc3cccc(C)c3n2[C@H]2CCCCN(C(=O)/C=C/CN(C)C)C2)ccn1` — result for “cells in G1 phase”: 30.5% (Trypanosoma brucei; propidium iodide flow cytometry; bloodstream form; concentration not given, 48 h).
`O=C(C[Se]C(=O)c1ccc2ccccc2n1)Nc1cccc(C(F)(F)F)c1` has a CC50 of 17.7 µM (NCI60 CNS subpanel; NCI60 five-dose screen).
`CC(C)(C)C(=O)OCOP(=O)(OCOC(=O)C(C)(C)C)C1CCCN(O)C1=O` (stereo not drawn) has a Log10LC50 of greater than -4 log M (NCI/ADR-RES).
`CC[C@H](C)[C@H](NC(=O)[C@@H](NC(=O)[C@@H]1CCCN1C(=O)[C@@H](NC(=O)[C@@H](NC(=O)[C@H](Cc1c[nH]cn1)NC(=O)[C@@H]1CCCN1C(=O)[C@H](CC(C)C)NC(=O)[C@@H](NC(=O)[C@H](Cc1c[nH]cn1)NC(=O)[C@H](CCCCN)NC(=O)[C@H](C)NC(=O)[C@H](CO)NC(=O)CNC(=O)[C@H](CC(C)C)NC(=O)[C@@H](NC(=O)CNC(=O)[C@H](Cc1ccccc1)NC(=O)[C@H](CC(C)C)NC(=O)CNC(=O)[C@@H](N)Cc1ccc(O)cc1)C(C)C)C(C)C)C(C)C)C(C)C)C(C)C)C(=O)N[C@@H](C)C(=O)N[C@@H](CCC(=O)O)C(=O)N[C@@H](Cc1c[nH]cn1)C(=O)N[C@@H](CC(C)C)C(N)=O` gave a viability of 75.8 ± 2.72% (LO2; MTT; 30 µg/mL, 24 h).
`N=C(N)NCCC[C@H](NC(=O)[C@H](CCCNC(=N)N)NC(=O)[C@H](CCCNC(=N)N)NC(=O)[C@H](CCC(N)=O)NC(=O)[C@H](CCCNC(=N)N)NC(=O)[C@H](CCCNC(=N)N)NC(=O)[C@H](CCCCN)NC(=O)[C@H](CCCCN)NC(=O)[C@H](CCCNC(=N)N)NC(=O)[C@H](Cc1c[nH]c2ccccc12)NC(=O)[C@H](Cc1c[nH]c2ccccc12)NC(=O)[C@@H](N)CSSC[C@H](N)C(=O)N[C@@H](Cc1c[nH]c2ccccc12)C(=O)N[C@@H](Cc1c[nH]c2ccccc12)C(=O)N[C@@H](CCCNC(=N)N)C(=O)N[C@@H](CCCCN)C(=O)N[C@@H](CCCCN)C(=O)N[C@@H](CCCNC(=N)N)C(=O)N[C@@H](CCCNC(=N)N)C(=O)N[C@@H](CCC(N)=O)C(=O)N[C@@H](CCCNC(=N)N)C(=O)N[C@@H](CCCNC(=N)N)C(=O)N[C@@H](CCCNC(=N)N)C(=O)NCC(N)=O)C(=O)NCC(N)=O` gave a nuclear concentration of 1.8 µM (Neuro2a; protein delivery, fluorescence, in-gel, SDS-PAGE, measured: AF488-H1; 2.5 µM, 1 h, added: AF488-H1 0.75 µM).
For `Cc1ccc(C(C)C)cc1.Cc1ccc(C(C)C)cc1.Cc1ccc(C(C)C)cc1.Cc1ccc(C(C)C)cc1.O=S(=O)(O)C(F)(F)F.O=S(=O)(O)C(F)(F)F.O=S(=O)(O)C(F)(F)F.O=S(=O)(O)C(F)(F)F.c1ccc2c3c4ccccc4c(c2c1)-c1cn(nn1)-c1cc[n+](cc1)[Ru-]1[O]c2ccc4c5c(ccc(c25)=[O+]1)=[O+][Ru-]([O]4)[n+]1ccc(cc1)-n1cc(nn1)-c1c2ccccc2c(c2ccccc12)-c1cn(nn1)-c1cc[n+](cc1)[Ru-]1[O]c2ccc4c5c(ccc(c25)=[O+]1)=[O+][Ru-]([O]4)[n+]1ccc(cc1)-n1cc-3nn1`, the IC50 was 16.9 ± 0.9 µM (HCT-15; cell growth, MTT; 24 h, 20 µM preincubated in medium 48 h at 37 °C).
`O=C(C[Se]C(=O)C12CC3CC(CC(C3)C1)C2)Nc1cccc(C(F)(F)F)c1` gave a CC50 of 54.9 µM (NCI60 colon subpanel; NCI60 five-dose screen).
`CSCC[C@H](N)C(=O)N[C@@H](C)C(=O)N[C@@H](Cc1c[nH]c2ccccc12)C(=O)N[C@@H](Cc1c[nH]cn1)C(=O)N[C@@H](CC(=O)O)C(=O)N[C@@H](CC(=O)O)C(=O)N[C@@H](CCC(=O)O)C(=O)N[C@@H](CCC(=O)O)C(=O)N[C@@H](Cc1ccccc1)C(=O)N[C@@H](C)C(=O)N[C@@H](CCCNC(=N)N)C(=O)N[C@@H](CCCNC(=N)N)C(=O)N[C@@H](CCCNC(=N)N)C(=O)N[C@@H](CCCNC(=N)N)C(=O)NCCCCCC(=O)NCCCCC(NC(=O)CCCCCNC(=O)[C@H](CCCNC(=N)N)NC(=O)[C@H](CCCNC(=N)N)NC(=O)[C@H](CCCNC(=N)N)NC(=O)[C@H](CCCNC(=N)N)NC(=O)[C@H](C)NC(=O)[C@H](Cc1ccccc1)NC(=O)[C@H](CCC(=O)O)NC(=O)[C@H](CCC(=O)O)NC(=O)[C@H](CC(=O)O)NC(=O)[C@H](CC(=O)O)NC(=O)[C@H](Cc1c[nH]cn1)NC(=O)[C@H](Cc1c[nH]c2ccccc12)NC(=O)[C@H](C)NC(=O)[C@@H](N)CCSC)C(=O)NCCCCC(NC(=O)C(CCCCNC(=O)CCCCCNC(=O)[C@H](CCCNC(=N)N)NC(=O)[C@H](CCCNC(=N)N)NC(=O)[C@H](CCCNC(=N)N)NC(=O)[C@H](CCCNC(=N)N)NC(=O)[C@H](C)NC(=O)[C@H](Cc1ccccc1)NC(=O)[C@H](CCC(=O)O)NC(=O)[C@H](CCC(=O)O)NC(=O)[C@H](CC(=O)O)NC(=O)[C@H](CC(=O)O)NC(=O)[C@H](Cc1c[nH]cn1)NC(=O)[C@H](Cc1c[nH]c2ccccc12)NC(=O)[C@H](C)NC(=O)[C@@H](N)CCSC)NC(=O)CCCCCNC(=O)[C@H](CCCNC(=N)N)NC(=O)[C@H](CCCNC(=N)N)NC(=O)[C@H](CCCNC(=N)N)NC(=O)[C@H](CCCNC(=N)N)NC(=O)[C@H](C)NC(=O)[C@H](Cc1ccccc1)NC(=O)[C@H](CCC(=O)O)NC(=O)[C@H](CCC(=O)O)NC(=O)[C@H](CC(=O)O)NC(=O)[C@H](CC(=O)O)NC(=O)[C@H](Cc1c[nH]cn1)NC(=O)[C@H](Cc1c[nH]c2ccccc12)NC(=O)[C@H](C)NC(=O)[C@@H](N)CCSC)C(N)=O` (stereo partly drawn): “nuclei with nuclear NFATc1” 79% (mouse bone marrow macrophages; immunocytochemistry; 3 µM, added: RANKL).
`Cc1cc(-c2ccc(S(=O)(=O)C3CC(C(=O)NC4(C#N)CC4)N(C(=O)C4(C(F)(F)F)CC4)C3)c(C(F)(F)F)c2)ccn1` (stereo not drawn): apoptotic cells “increased” (MDA-MB-231; annexin V/7-AAD flow cytometry; concentration not given, added: ionizing radiation 10 Gy).
`CC(C)CC(O)(CC(C)C)c1cn(C(=O)N2CCCC2)nn1` has an SILAC ratio of 1.03 (mouse T-cells; protein abundance, unenriched SILAC proteomics, measured: S100A6; 1 nM, 6 h, protein median; relative to: DMSO).
The CC50 of `O=C(C[Se]C(=O)c1ccco1)Nc1cccc(C(F)(F)F)c1` is reported as 64.5 µM (NCI60 colon subpanel; NCI60 five-dose screen).
With `CSCC[C@H](NC(=O)[C@@H](NC(=O)[C@H](CCC(N)=O)NC(=O)[C@H](CO)NC(=O)[C@@H](N)C(C)C)[C@@H](C)O)C(=O)N[C@@H](CCCNC(=N)N)C(=O)N[C@@H](CCC(N)=O)C(=O)N[C@H](C(=O)N[C@@H](C)C(=O)N[C@H](C(=O)N1CCC[C@H]1C(=O)N[C@@H](CC(C)C)C(=O)N[C@@H](CC(C)C)C(=O)N[C@@H](Cc1c[nH]c2ccccc12)C(=O)N[C@@H](Cc1ccccc1)C(=O)N[C@@H](Cc1c[nH]c2ccccc12)C(=O)N[C@H](C(=O)NCC(=O)N[C@@H](CO)C(=O)N[C@@H](CC(C)C)C(=O)NCCOCCOCCOCCOCCOCCOCCOCCOCCOCCOCCOCCOCCC(=O)N[C@@H](CS)C(N)=O)[C@@H](C)O)C(C)C)[C@@H](C)O` the selectivity ratio was 0.39 ± 0.16 (H1975 lung adenocarcinoma; cell binding, phage binding, measured: output/input phage; 10 min, 37 °C; relative to: control phage).
With `COc1ccccc1-c1ccncc1C(=O)Nc1nnc(OCc2ccc(Cl)cc2)s1` the colony survival was 8.72% (DLD-1 BRCA2-/-; 8 µM, mean of 3 replicates; relative to: untreated).
The relative abundance of `COc1ccccc1-c1n[nH]c2nc(NC3CCN(C(=O)Cc4ccc(F)cc4F)CC3)ncc12` is reported as 0.91 (bead binding, competition bead pull-down, measured: LINJ.26.1220; Leishmania donovani axenic amastigote extract; 10 µM; relative to: vehicle).
With `O=c1n(CCNCCOS(=O)(=O)c2ccccc2)c(=O)n(S(=O)(=O)c2ccccc2)c(=O)n1S(=O)(=O)c1ccccc1` the viability was 12.8% (A549; cell growth or viability, MTT; 200 µg/mL, 48 h).
`NC(=O)N/N=C/c1ccc(OCc2cccc(F)c2)cc1`: “glutathione peroxidase activity (OD450)” 0.082 a.u. (IMR-32; measured: GPX3; 300 µg/mL, 24 h; higher = more activity).
With `CC(C)C[C@H](NC(=O)[C@H](CC(=O)O)NC(=O)CNC(=O)[C@@H](N)CCCNC(=N)N)C(=O)N[C@@H](C)C(=O)N[C@H](C(=O)N[C@@H](CC(C)C)C(=O)N[C@@H](CCCNC(=N)N)C(=O)N[C@@H](CCC(N)=O)C(=O)N[C@@H](CC(C)C)C(=O)N[C@@H](C)C(=O)N[C@@H](CCC(N)=O)C(=O)N[C@@H](CCC(=O)O)C(=O)N[C@@H](CC(=O)O)C(=O)NCC(=O)N[C@H](C(=O)N[C@H](C(=O)NCC(=O)N[C@H](C(=O)N[C@@H](CCCNC(=N)N)C(=O)NCCOCCOCCOCCOCCOCCOCCOCCOCCOCCOCCOCCOCCC(=O)N[C@@H](CS)C(N)=O)C(C)C)C(C)C)C(C)C)[C@@H](C)O` the selectivity ratio was 1.6 ± 1 (MiaPaCa pancreatic cancer; cell binding, phage binding, measured: output/input phage; 10 min, 37 °C; relative to: control phage).
For `O=C1NC2(CC2)COc2ncc(F)cc2[C@H]2COCCN2c2ccn3ncc1c3n2`, the prothrombin time was 8.2 ± 0.3 s (Sprague-Dawley rat, female, plasma; oral, 5 mg/kg/day, end of treatment, 4-week repeated-dose toxicity).

A few entries again:
With `CSCC[C@H](NC(=O)[C@@H](NC(=O)[C@H](CCC(N)=O)NC(=O)[C@H](CO)NC(=O)[C@@H](N)C(C)C)[C@@H](C)O)C(=O)N[C@@H](CCCNC(=N)N)C(=O)N[C@@H](CCC(N)=O)C(=O)N[C@H](C(=O)N[C@@H](C)C(=O)N[C@H](C(=O)N1CCC[C@H]1C(=O)N[C@@H](CC(C)C)C(=O)N[C@@H](CC(C)C)C(=O)N[C@@H](Cc1c[nH]c2ccccc12)C(=O)N[C@@H](Cc1ccccc1)C(=O)N[C@@H](Cc1c[nH]c2ccccc12)C(=O)N[C@H](C(=O)NCC(=O)N[C@@H](CO)C(=O)N[C@@H](CC(C)C)C(=O)NCCOCCOCCOCCOCCOCCOCCOCCOCCOCCOCCOCCOCCC(=O)N[C@@H](CS)C(N)=O)[C@@H](C)O)C(C)C)[C@@H](C)O` the selectivity ratio was 0.39 ± 0.16 (H1975 lung adenocarcinoma; cell binding, phage binding, measured: output/input phage; 10 min, 37 °C; relative to: control phage).
With `COc1ccccc1-c1ccncc1C(=O)Nc1nnc(OCc2ccc(Cl)cc2)s1` the colony survival was 8.72% (DLD-1 BRCA2-/-; 8 µM, mean of 3 replicates; relative to: untreated).
